Assay results collected from several papers.
Parts stem from different laboratories: compare values within a part only.

Set 1 — method: RNA Bind-n-Seq; molecule type: RNA; sample: in vitro; concentration: 365 nM; relative to: no-protein control; direction: higher = stronger binding
Target: RNA binding protein fox-1 homolog 2, RRM domain, GST-SBP tag (RBFOX2, Homo sapiens, UniProt O43251-10, residues 100-194)
Setting: natural RNA segment, single round, ends assumed
Constant ends, left off below: GGGAGUUCUACAGUCCGACGAUC … UGGAAUUCUCGGGUGCCAA
Construct (chain): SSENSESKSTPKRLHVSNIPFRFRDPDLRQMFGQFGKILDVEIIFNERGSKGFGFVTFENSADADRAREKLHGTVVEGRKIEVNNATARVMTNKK
Sequence | RBNS enrichment (R)
CGGACCUAGGAAGUUGGGGUCUGUAGUAUGCCUGGAUUUUCUAUUAUUCAUGAGAUUUGUACAAACCCUAUACCGGAAUGGAUGCUUCCCUUCCACCUCCCUGAAAUGUA | 0.576
UUUGGUUAUGUUGCUGAUGUAAAUUUGUGUAAAUGGUUUCUACCCUGGAGAGUGUGUGUACCGUGUGCACUUGACUAAGGUCACAACAGAACGUUGUGUUGUAUUCUCCC | 0.653
UUUCUUUGCAGGAGCUAGCCCAAAGGCAUCAAAUUUAAUAUGAUAAAAUGAAUUGCUAUACCUUAGAAACAAUGUGACUCUAUUAAAAUAGUAUGGGGUAAGUACCCUAC | 0.387
AGACACCACUAGCUGGAUAUUUCACAGGCAUCUUUGAUUCAAUAUGUCCAAAGUGGAACUCUCCAUCUACCUCCCUCACAUGAACCUGUUCCUCUCUCAGGAUCUGUAUG | 0.398
UUUCAGAGUAAAAGUAAGGCAUGUUUCUGAGCAACAUUGAUAAUUUCUUAAUUUGCAAAUUUCUUCUUAUUUUGGUACUUGGAAUAUAGUGUGAGAUUUUUUAUUUCUAA | 2.11
GUUUGUCUCCUGUAAAUAGCGGCUCCUAUGCCAUCCUCCCUGCUUUAUUAGUUAAUUUAAAUGAACACUCUUAUGUUCCAGUCUUAUAAAUAAAGCCUAUAGUGCACUUC | 0.911
AUUCUUGCCUAUUAACAUCUGAUGUAAGGCGCUCAUAUAGGCUGUGUGUACAAUCUUGGGCACUGAUUCCAUCAGUAGUAUCUUGUACCAUCCAAGGAGAGGGCCAGGAA | 0.255
AGUCUCUGUACUUGGCUACACAGAUUGUAUUUUUAUUGUUAAUGCUCUCUUCUUAUGGAUACCUGCAUUUAACUUGUGGACUAUGUAAACACAAUAUAUAUCAAUAUCUA | 0.436
CUCUGAUCGGGGAGGCAUCUGAUGGUGGCACCAUGGAGAACCUCAGCCGGAGACUCAAGGUCACUGGAGACCUGUUUGACAUCAUGUCGGGCCAGACCGAUGUGGAUCAC | 0.609
AGUGUCUUCCUCCACGCGGAUUCCUGUACACCUUGAUCCAAAGCAGUGCUCCCAAGAGCAGCUCCUACGUGGUGCUGCCCGACACCAGCACAUGAGGGGCCGCUCUUCUG | 0.354
UAUUCCUGAGCCCCGAUGGAGUCUUGUGGCCUGGAGUUGGGGUGUCUAGGACAACAGUGCCCGGCCUUGCACCUACUUGCCAGUUCUGCUUUGCCCAGCCUUGCUUUGGA | 0.646
CGUCCUCGGCCCCCCACCCUGAAGUGCCAGCACCACCAGCACCAGAUCCUCCGCCGCCACACCGCACUGAGGACACGCCGGCCGGGCCGCCUCGUCUCAAGUUGUAUAAA | 0.685

Set 2 — method: protein-binding microarray; molecule type: double-stranded DNA, one strand shown; sample: in vitro; concentration: not given; direction: higher = stronger binding
Target: Protein max, full length (MAX, Homo sapiens, UniProt P61244-2, residues 1-151)
Setting: k-mer, scored over probes, only values ≥0.25
Sequence | E-score
CATGAGTA | 0.267
ACCACGCC | 0.395
AGCGTGAT | 0.428
CCCACGCA | 0.313
CATGCCTC | 0.377
GGCGGGGA | 0.3
AGTGCGTG | 0.327
CCCACCCC | 0.352
ATTGCGTG | 0.259
ATGTGGTG | 0.316
AGCTCGTG | 0.343
ACGTGCGG | 0.417
ACGTGTTC | 0.461
CACGGGGA | 0.361
CATGTGAA | 0.44
CCACGTGC | 0.497
AATGTGGC | 0.292

Set 3 — method: protein-binding microarray; molecule type: double-stranded DNA, one strand shown; sample: in vitro; concentration: 2200 nM top; setting: 60-bp whole probe; with: salmon DNA 0.4 mg/ml; relative to: random background probes; direction: higher = stronger binding; constant ends, left off below: GCCTAGCAC … GTCTTGATTCGCTTGACGCTGCTG
Target: Interferon regulatory factor 7, full length, phosphomimetic (IRF7, Homo sapiens, UniProt Q92985, residues 1-503, S471D/S472D/S475D/S476D/S477D/S483D/S484D/S487D)
Construct (chain): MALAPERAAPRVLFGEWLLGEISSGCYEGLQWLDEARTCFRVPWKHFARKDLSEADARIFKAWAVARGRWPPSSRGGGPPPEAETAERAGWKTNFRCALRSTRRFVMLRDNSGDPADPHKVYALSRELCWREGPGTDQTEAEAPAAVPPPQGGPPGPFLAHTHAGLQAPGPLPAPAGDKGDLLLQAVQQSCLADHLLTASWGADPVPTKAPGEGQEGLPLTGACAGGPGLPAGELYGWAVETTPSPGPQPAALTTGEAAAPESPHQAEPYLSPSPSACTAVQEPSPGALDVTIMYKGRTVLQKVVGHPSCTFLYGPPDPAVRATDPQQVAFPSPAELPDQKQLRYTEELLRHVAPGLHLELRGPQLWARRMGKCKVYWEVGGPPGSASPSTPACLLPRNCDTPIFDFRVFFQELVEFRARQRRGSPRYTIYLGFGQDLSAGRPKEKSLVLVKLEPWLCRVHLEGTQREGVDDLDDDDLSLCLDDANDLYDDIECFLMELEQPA
Sequence | fitted relative affinity [z-score]
GCCAAAAGTGTAAATGTAAGGTGCTAG | -0.198
GACGGTATCCTACTGCTAACGTGCTAG | 0.747
TTAAGTATCGACACTGGGTTAGTGCTA | -0.106
GACGGTCTAGGTCTCGGGACGTGCTAG | -0.576
TTAGGTTTCGACTTTCGGTTAGTGCTA | 10.9
GACGATTTCGGGTACCGAGACGTGCTA | 2.45
TTAGGTTTCGGTATCGGTTGGTGCTAG | 8.43
ATGCTTTACTCACTCGGAAAGTGCTAG | 1.24
GACGGTAACCTTCTCCTGACGTGCTAG | 0.607
TTAGCTATCGACTTTCGGTTAGTGCTA | 6.09
CATTTTATGGTATTTTTTTCGTGCTAG | 1.66
TCACTCGTCTCTATCAAACTGTGCTAG | 1.55
ATAGGACTGCTTCTCCTTTAGTGCTAG | 0.899
TTATATCTCAGTATCGATTAGTGCTAG | 0.962
GACGGTCTCCCTTTCCTGACGTGCTAG | 1.44
TTAGGTCTCGGGTATCGGTTAGTGCTA | 0.582
TTAGGTATCGGTTTCTGTTAGTGCTAG | 3.9
TCAAATCTTTTTCCCTAACTGTGCTAG | 0.858
TTAGGTATCCTGCTGCTTTAGTGCTAG | 0.503
GACGGTCTCTGACTGGGGACGTGCTAG | -0.548
TCATCTATCTCTGTTTTACTGTGCTAG | 1.97
TTAGGTATCCTTTTCCGTTAGTGCTAG | 1.89
GACGGTATCGGTATGGGGACGTGCTAG | 0.205
GACGATATCAGTCACGAGACGTGCTAG | 0.225
GACGGTTTCCTTTTCATGACGTGCTAG | 4.67

Set 4 — method: protein binding microarray; molecule type: double-stranded DNA, one strand shown; sample: in vitro; concentration: not given; relative to: not given; direction: higher = stronger binding
Target: Histone acetyltransferase KAT6A, winged helix 1, GST fusion (KAT6A, Homo sapiens, UniProt Q92794, residues 1-85)
Setting: 8-mer, flanks averaged, mean of 2 arrays, mostly near background
Construct (chain): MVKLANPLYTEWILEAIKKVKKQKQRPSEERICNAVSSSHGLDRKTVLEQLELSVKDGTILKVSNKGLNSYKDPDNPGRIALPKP
Sequence | E-score
GAAGGTCA | -0.0439
TAGTAATA | -0.0425
AAACGGTC | 0.233
TTAACAAA | 0.0264
AGCCGCCA | 0.282
AAGTGGGG | -0.186
ACCCAGAA | -0.255
CCGAATCG | 0.251
GGACCGAA | -0.205
ATTGATTA | 0.000375
AACTTTTA | -0.0639
TGCAGTAA | -0.136
GGTTCGAC | -0.0383
ATCTACTA | -0.0307
GCGAATAC | 0.135
CGCCCGGA | 0.279
TATTTACA | -0.123
CTCCTCTC | -0.0722
GATTAAGA | -0.11
AATAGGTC | 0.034
AAGTATGA | -0.204
CCTCTCTA | -0.126
ACACCCGC | 0.27

Set 5 — method: universal PBM; molecule type: double-stranded DNA, one strand shown; sample: in vitro; concentration: 600 nM; direction: higher = stronger binding
Target: Sal-like protein 4, full length isoform A (SALL4, Homo sapiens, UniProt Q9UJQ4, residues 1-1053)
UniProt Q9UJQ4, sequence (whole entry, looked up): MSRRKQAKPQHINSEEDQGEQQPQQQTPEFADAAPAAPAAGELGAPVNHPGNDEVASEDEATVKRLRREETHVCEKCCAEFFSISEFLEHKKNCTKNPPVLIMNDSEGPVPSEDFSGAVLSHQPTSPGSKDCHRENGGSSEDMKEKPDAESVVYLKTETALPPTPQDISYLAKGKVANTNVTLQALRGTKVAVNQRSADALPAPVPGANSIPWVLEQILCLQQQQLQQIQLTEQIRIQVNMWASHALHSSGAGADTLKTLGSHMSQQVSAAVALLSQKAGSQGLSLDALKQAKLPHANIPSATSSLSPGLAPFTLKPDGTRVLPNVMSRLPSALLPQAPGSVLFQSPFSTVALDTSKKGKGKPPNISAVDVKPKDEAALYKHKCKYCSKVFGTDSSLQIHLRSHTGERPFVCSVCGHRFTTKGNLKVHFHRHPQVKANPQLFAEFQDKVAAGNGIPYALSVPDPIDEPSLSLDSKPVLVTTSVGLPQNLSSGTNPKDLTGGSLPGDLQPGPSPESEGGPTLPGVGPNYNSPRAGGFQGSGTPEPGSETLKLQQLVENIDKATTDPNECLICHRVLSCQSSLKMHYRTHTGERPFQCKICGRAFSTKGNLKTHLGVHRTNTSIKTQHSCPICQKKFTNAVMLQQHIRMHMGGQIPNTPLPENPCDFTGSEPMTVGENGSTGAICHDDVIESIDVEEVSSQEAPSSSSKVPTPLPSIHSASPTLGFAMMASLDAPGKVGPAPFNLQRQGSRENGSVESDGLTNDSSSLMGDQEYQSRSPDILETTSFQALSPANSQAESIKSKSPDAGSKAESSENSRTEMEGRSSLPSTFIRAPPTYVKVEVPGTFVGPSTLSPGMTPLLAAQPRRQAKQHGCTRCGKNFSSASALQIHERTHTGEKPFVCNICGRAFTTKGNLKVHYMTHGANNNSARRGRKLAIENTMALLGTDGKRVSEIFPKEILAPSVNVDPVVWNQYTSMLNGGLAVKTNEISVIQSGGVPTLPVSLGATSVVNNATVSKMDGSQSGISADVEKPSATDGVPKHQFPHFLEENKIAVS
Setting: 8-mer, flanks averaged, mean of replicates
Sequence | E-score
AGCTTGCG | -0.167
AAAGATTT | 0.196
CGTCATGC | -0.17
ACCTTACA | 0.141
CCGCTCAC | -0.338
CACAAGAC | 0.0072
TCTCCTAA | 0.179
CATAAAGA | 0.303
ACAAATAG | 0.301
CCGAAAAG | -0.0012
CCTAGGTA | -0.00705
CGTCACGA | -0.0209
TCAGCTAA | 0.173
AACCGCTT | -0.0917
CACCAACG | -0.147
CTCAGGTC | -0.201
ATACTCAG | 0.142
CCCTGTGC | -0.213
AGGACTAC | -0.098
CCAATGTC | -0.0778
GCTTAATA | 0.255
ACGTGCCG | -0.24
CCGTACCG | -0.326
CGGACGAG | -0.23
CGTTCGTA | 0.117

Set 6 — method: aptamer microarray, sandwich; molecule type: DNA with 2'F-ANA; sample: in vitro; concentration: 200 nM; with: Cy3 exosite-II aptamer, 400 nM; direction: higher = stronger binding; sequence: GGTTGGTGTGGTTGG
Target: Prothrombin, mature alpha-thrombin (F2, Homo sapiens, UniProt P00734)
Setting: whole 15-mer aptamer, many near background
Modification | mean fluorescence intensity
2'F-ANA at 2 3 5 7 8 10 12 15 | 66.3 a.u.
2'F-ANA at 3 6 8 9 11 15 | 828 a.u.
2'F-ANA at 1 2 9 11 15 | 148 a.u.
2'F-ANA at 1 2 6 7 9 10 13 | 48.8 a.u.
2'F-ANA at 3 7 8 10 11 12 | 692 a.u.
2'F-ANA at 6 7 8 12 13 14 15 | 234 a.u.
2'F-ANA at 3 5 6 7 8 10 13 | 52.1 a.u.
2'F-ANA at 1 2 6 7 9 10 12 13 14 15 | 52 a.u.
2'F-ANA at 2 3 4 5 8 9 10 | 54.8 a.u.
2'F-ANA at 4 5 7 8 12 13 14 | 45.1 a.u.
2'F-ANA at 2 4 6 9 10 12 13 15 | 105 a.u.
2'F-ANA at 1 2 4 8 9 11 | 126 a.u.
2'F-ANA at 1 4 5 11 13 15 | 49.8 a.u.
2'F-ANA at 2 4 5 7 8 9 12 | 178 a.u.
2'F-ANA at 1 4 6 8 10 11 12 14 15 | 53.4 a.u.
2'F-ANA at 1 2 3 4 5 6 7 11 12 13 14 15 | 48.6 a.u.
2'F-ANA at 1 3 5 8 9 12 15 | 153 a.u.
2'F-ANA at 2 3 4 5 7 8 11 15 | 92.7 a.u.
2'F-ANA at 3 5 6 9 14 | 48.5 a.u.
2'F-ANA at 3 6 7 8 9 10 12 13 14 | 440 a.u.
2'F-ANA at 3 4 5 7 11 12 13 14 15 | 56.4 a.u.
2'F-ANA at 1 3 4 5 7 8 10 12 13 | 50.3 a.u.
2'F-ANA at 2 4 5 7 8 10 11 12 13 15 | 47.3 a.u.
2'F-ANA at 4 7 9 10 11 12 13 | 81.9 a.u.
2'F-ANA at 2 4 5 7 11 12 | 145 a.u.

Excerpt of the above (set 3):
Sequence | fitted relative affinity [z-score]
TTAGGTTTCGACTTTCGGTTAGTGCTA | 10.9
GACGATTTCGGGTACCGAGACGTGCTA | 2.45
TTAGGTTTCGGTATCGGTTGGTGCTAG | 8.43
ATGCTTTACTCACTCGGAAAGTGCTAG | 1.24
GACGGTAACCTTCTCCTGACGTGCTAG | 0.607
TTAGCTATCGACTTTCGGTTAGTGCTA | 6.09
CATTTTATGGTATTTTTTTCGTGCTAG | 1.66
TCACTCGTCTCTATCAAACTGTGCTAG | 1.55
ATAGGACTGCTTCTCCTTTAGTGCTAG | 0.899
TTATATCTCAGTATCGATTAGTGCTAG | 0.962
GACGGTCTCCCTTTCCTGACGTGCTAG | 1.44
TTAGGTCTCGGGTATCGGTTAGTGCTA | 0.582
TTAGGTATCGGTTTCTGTTAGTGCTAG | 3.9
TCAAATCTTTTTCCCTAACTGTGCTAG | 0.858
TTAGGTATCCTGCTGCTTTAGTGCTAG | 0.503
GACGGTCTCTGACTGGGGACGTGCTAG | -0.548
TCATCTATCTCTGTTTTACTGTGCTAG | 1.97
